Assay results of several laboratories.
Each numbered part is a random draw from the data of one study; scales do not carry over between parts.

Set 1
Target: RING finger protein unkempt homolog, zinc fingers 1-6, GST-SBP tag (UNK, Homo sapiens, UniProt Q9C0B0, residues 30-357)
UniProt Q9C0B0, sequence (30-357, looked up): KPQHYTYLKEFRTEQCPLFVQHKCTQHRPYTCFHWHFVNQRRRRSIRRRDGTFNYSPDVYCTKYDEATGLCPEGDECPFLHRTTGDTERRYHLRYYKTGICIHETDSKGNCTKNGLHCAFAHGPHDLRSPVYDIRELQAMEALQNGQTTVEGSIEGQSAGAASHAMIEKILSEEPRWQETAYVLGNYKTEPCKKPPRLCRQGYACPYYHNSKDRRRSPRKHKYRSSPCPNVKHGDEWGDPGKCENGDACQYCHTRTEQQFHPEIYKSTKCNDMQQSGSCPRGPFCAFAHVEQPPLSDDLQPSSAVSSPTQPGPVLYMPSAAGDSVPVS
Method: RNA Bind-n-Seq
Molecule type: RNA
Medium: in vitro
Concentration: not given
Setting: RNA with constant flanks, human-mouse chimeric sites, ends assumed
Relative to: input RNA pool
Reading: higher = stronger binding
`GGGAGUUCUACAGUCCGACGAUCCACAGAGCAGCACCUACCCCCUCCUCCUUUCCACACCUGCAAACUCUUUUACUUGGGCUGCAUAGUUAGUGUAAUUAACAUCGCAGCUUGAGGGCUCCUGUGGCAAAUUCCCGGAUUAAACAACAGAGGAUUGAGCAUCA` gave a bound/input enrichment of 0.467 ratio.
With `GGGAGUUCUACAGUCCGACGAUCGUUGCCAGCUUCCGGUUGGCCUCCAUCCGGUUCUCUCCUGAGCUACGUGUCUCUACGCUCUCAAUCCGCCAUCCAACAAACAUGGAUCAGGUAAUGCAGUUUGUGGAGCCCAGCCGGCAGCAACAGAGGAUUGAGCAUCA` the bound/input enrichment was 0.1 ratio.
The bound/input enrichment of `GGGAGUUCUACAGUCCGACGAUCGGCCUGGGACCGUCCUGGGCUAGUACAAAUAGCGGCAGUGGAGGCUCGAGAGGAAAGUUUGUUAGUGAGGCAGUGGUUAGAGGCCGUCAUGUACGGUCUUUACACGAAUAGAUGUGUUCUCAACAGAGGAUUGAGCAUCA` is reported as 0.755 ratio.
The bound/input enrichment of `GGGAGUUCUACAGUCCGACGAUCAUGGAACAUUUCGAUGCGUCACUCAGUACCUAUUUCAAGGCCUUCCUGGGCCCCCGAGAUACAAGAGUCAAAGGAUGGUUCCUCCUGGACAAUUACAUACCCACAUUUAUCUGCUCUGUUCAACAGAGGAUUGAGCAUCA` is reported as 0.0806 ratio.
`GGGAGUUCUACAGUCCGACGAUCAGUGUGCAGGAAUUCAUGACCUUUACAAGUCAACUGAUUGUGGAACGCUCAUCGAAAGGCACUAGAGCUUCUGUCAAAGAACAAGAGUAUCUUUGCCAUGUCUACGUCCGGAGCGACAGUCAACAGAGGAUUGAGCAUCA` gave a bound/input enrichment of 0.0809 ratio.
`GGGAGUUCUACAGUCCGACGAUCGAGUCGAGCAAACUUGAAACAAUUCGUUAUCUUGCAGAGCUUCGGUGCACUUGCUUGGCGAUAGCAUAUUGGGAUUUUAGGUUCUGGAAGGAGAACUGACGAUGAUGCUGCCGCUGCUGCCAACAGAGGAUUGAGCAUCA` has a bound/input enrichment of 0.953 ratio.
`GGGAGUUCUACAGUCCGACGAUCGCAAAGGAUGAUGAGGCGGCAGCUGUUGCACUUUCCUCUCUCGUUCAUGCUUUGGAUGAGUUAAACAUGGUCGCCAUAGUUCGAUAUGCUUAUGACAAAAGAUCUAAUCCUCAAGUUGGUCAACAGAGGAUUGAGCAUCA` gave a bound/input enrichment of 0.178 ratio.
`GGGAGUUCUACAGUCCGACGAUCGAAUCCUACUCAGGCGGAUUUUGCAACACCAAGCUCACAGCAGCAGCAUCUUAGUCACAGUUAGGUAGUUUUGGGGCUCUGUGGCCAGGGUUUUAUUCACAUGCAGGUUUGGAAAAUGUACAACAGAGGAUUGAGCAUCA` gave a bound/input enrichment of 3.17 ratio.

Set 2
Organism: Saccharomyces cerevisiae
Effect on: cell growth
Method: competitive growth deep sequencing
Molecule type: peptide
Setting: peptide tiling library
With: cyclin F-Cln2 fusion
Reading: direction not given
The enrichment score of `NNIRKALSFDNRGEEH` is reported as 0.489.
With `RKLHFEDEVT` the enrichment score was 3.55.
For `KVKRRLDLDIDGLQKE`, the enrichment score was 3.16.
`LRRKLFLDGNGSIS` has an enrichment score of 1.81.
For `SCCKRKLVVGNGPEGP`, the enrichment score was 0.51.
`VSRNLRSSLKSSLHTL` has an enrichment score of -1.38.
The enrichment score of `ARKRLELGNLGNPQ` is reported as 1.68.
`PQWPCGKHKRVLIFAS` gave an enrichment score of 0.431.
`RRVLCFDS` has an enrichment score of 2.07.
The enrichment score of `NFETPEAETPIRSPFK` is reported as 0.27.
The enrichment score of `LRRQLSFSED` is reported as 2.85.
The enrichment score of `RKLDLEGIGR` is reported as 3.07.
The enrichment score of `PPKPLKKLRFDIEGSD` is reported as 0.928.
The enrichment score of `PPTFLSTGEIHAFLSS` is reported as -0.252.
`GAEELEDLVHFSVSEL` gave an enrichment score of 1.97.
`TTTTSPRTPPPLTVQD` gave an enrichment score of 0.536.
With `GFGFLLFICKLTF` the enrichment score was 1.31.
`DWDTVERQEEEAPSWD` has an enrichment score of 1.68.

Set 3
Target: Histone acetyltransferase KAT6A, winged helix 1, GST fusion (KAT6A, Homo sapiens, UniProt Q92794, residues 1-85)
Method: protein binding microarray
Molecule type: double-stranded DNA, one strand shown
Medium: in vitro
Concentration: not given
Setting: 8-mer, flanks averaged, mean of 2 arrays, mostly near background
Relative to: not given
Reading: higher = stronger binding
Construct (chain): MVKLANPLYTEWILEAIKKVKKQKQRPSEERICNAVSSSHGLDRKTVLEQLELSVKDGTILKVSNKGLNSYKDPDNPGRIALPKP
With `CGAACCCG` the E-score was 0.358.
The E-score of `GTGTTTGA` is reported as -0.175.
With `CACGTCTA` the E-score was -0.235.
`CATCTTCC` has an E-score of -0.0183.
The E-score of `TTAGACAA` is reported as -0.00108.
For `GTTACCAA`, the E-score was 0.0196.
`ACGGGCGA` gave an E-score of 0.356.
For `TACCTAAA`, the E-score was -0.00813.
`ACTTTCAT` gave an E-score of -0.108.
With `GATGTGCC` the E-score was 0.0362.
For `TTAGGCAA`, the E-score was -0.179.
For `AACTCGCT`, the E-score was -0.0168.
With `CAGGAAGG` the E-score was -0.127.
`ATCCCTTG` has an E-score of -0.15.
`CCAGTAAA` gave an E-score of -0.13.
`AGCCAGAG` has an E-score of -0.158.
`GACTGTGC` has an E-score of 0.00868.
`ACCAATAG` has an E-score of 0.00808.
For `AGATCAAG`, the E-score was -0.128.
`ACCTACAG` has an E-score of -0.024.
For `AAAAAGCG`, the E-score was 0.192.
`CACATAAC` gave an E-score of -0.101.
For `ATAGAAAC`, the E-score was -0.12.
`TAACACTA` gave an E-score of 0.0898.
For `ACGAGGGG`, the E-score was -0.139.

Set 4
Target: Interferon regulatory factor 5, full length, phosphomimetic (IRF5, Homo sapiens, UniProt Q13568-2, residues 1-514, K96S/S451D/S453D/S456D/S462D)
Method: protein-binding microarray
Molecule type: double-stranded DNA, one strand shown
Medium: in vitro
Concentration: 250 nM
Setting: 60-bp whole probe
With: salmon DNA 0.4 mg/ml
Relative to: random background probes
Reading: higher = stronger binding
Constant ends, left off below: GCCTAGCAC … GTCTTGATTCGCTTGACGCTGCTG
The log fluorescence of `TCAAACTTAGTTTTCAAACTGTGCTAG` is reported as 0.372 z-score.
`TCATGATTACATATATGACTGTGCTAG` has a log fluorescence of 0.227 z-score.
`TACGGACTGGGTATCGGGACGTGCTAG` has a log fluorescence of 0.316 z-score.
With `GACGTTTCCCTTTTCCTGACGTGCTAG` the log fluorescence was 1.29 z-score.
`TTAGGTATCCTACTGCATTAGTGCTAG` has a log fluorescence of -0.117 z-score.
For `GCCGGTCTCGGACTGGGGACGTGCTAG`, the log fluorescence was -0.404 z-score.
For `TTCACTTTCTTTACTTCACTGTGCTAG`, the log fluorescence was 3.66 z-score.
`GACGATTTCGGTATCGAGACGTGCTAG` gave a log fluorescence of 8 z-score.
`GACGGTTTTCTTATCCTGACGTGCTAG` has a log fluorescence of 0.558 z-score.
With `TTAGGTATCCGACTGCTTTAGTGCTAG` the log fluorescence was -0.0812 z-score.
With `TCAACACTAGTTTTCATACTGTGCTAG` the log fluorescence was 1.17 z-score.
`GACGGTCTCGGTTTCGGAACGTGCTAG` gave a log fluorescence of 4.49 z-score.
The log fluorescence of `GACGGTTTGCTTCTCCTGACGTGCTAG` is reported as -0.128 z-score.
The log fluorescence of `TCAGGTTTTACTTTCTAACTGTGCTAG` is reported as 1.66 z-score.
With `GACGGTTTCAGACTGGGGACGTGCTAG` the log fluorescence was 0.609 z-score.
`GACGGTTTCGGGGATCGGGACGTGCTA` has a log fluorescence of 4.68 z-score.
`TTAGGACTGGGGTTTCTGTTAGTGCTA` has a log fluorescence of 1.04 z-score.

Set 5
Target: Hepatocyte nuclear factor 3-beta, forkhead domain (FOXA2, Homo sapiens, UniProt Q9Y261, residues 142-269)
Method: protein-binding microarray
Molecule type: double-stranded DNA, one strand shown
Medium: in vitro
Concentration: not given
Setting: k-mer, scored over probes, only values ≥0.25
Reading: higher = stronger binding
Target sequence (chain): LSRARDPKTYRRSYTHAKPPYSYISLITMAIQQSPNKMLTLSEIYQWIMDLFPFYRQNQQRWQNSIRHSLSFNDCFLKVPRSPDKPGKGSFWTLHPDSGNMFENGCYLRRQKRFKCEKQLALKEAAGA
`GAATACAA` has an E-score of 0.267.
`GTAGATAA` has an E-score of 0.336.
`AACACTAT` gave an E-score of 0.254.
`TATTTACA` has an E-score of 0.405.
For `ATGTGTAC`, the E-score was 0.369.
The E-score of `AATAATAT` is reported as 0.317.
The E-score of `TACCACAA` is reported as 0.357.
With `TGTTGTAA` the E-score was 0.263.
`TACACATA` gave an E-score of 0.408.
With `AGTGTACA` the E-score was 0.328.
`TATAAGCA` gave an E-score of 0.311.
With `AATCACAT` the E-score was 0.256.
`ACAACAAA` has an E-score of 0.3.
For `ACTAGAAT`, the E-score was 0.267.
The E-score of `AAACATCA` is reported as 0.338.
`CATTAAAC` has an E-score of 0.276.
For `AATTATTG`, the E-score was 0.266.
With `ATAGTAAC` the E-score was 0.345.

A few entries again (set 4):
`TACGGACTGGGTATCGGGACGTGCTAG` has a log fluorescence of 0.316 z-score.
With `GACGTTTCCCTTTTCCTGACGTGCTAG` the log fluorescence was 1.29 z-score.
`TTAGGTATCCTACTGCATTAGTGCTAG` has a log fluorescence of -0.117 z-score.
For `GCCGGTCTCGGACTGGGGACGTGCTAG`, the log fluorescence was -0.404 z-score.
For `TTCACTTTCTTTACTTCACTGTGCTAG`, the log fluorescence was 3.66 z-score.
`GACGATTTCGGTATCGAGACGTGCTAG` gave a log fluorescence of 8 z-score.
`GACGGTTTTCTTATCCTGACGTGCTAG` has a log fluorescence of 0.558 z-score.
With `TTAGGTATCCGACTGCTTTAGTGCTAG` the log fluorescence was -0.0812 z-score.
With `TCAACACTAGTTTTCATACTGTGCTAG` the log fluorescence was 1.17 z-score.
`GACGGTCTCGGTTTCGGAACGTGCTAG` gave a log fluorescence of 4.49 z-score.
